Assay results gathered from unrelated publications.
± marks the error that the study gave.
Succinate dehydrogenase complex: Succinate dehydrogenase complex (Sus scrofa, UniProt A5GZW8+D0VWV4+Q007T0+Q0QF01)
Chain of UniProt Q007T0 (whole entry, looked up): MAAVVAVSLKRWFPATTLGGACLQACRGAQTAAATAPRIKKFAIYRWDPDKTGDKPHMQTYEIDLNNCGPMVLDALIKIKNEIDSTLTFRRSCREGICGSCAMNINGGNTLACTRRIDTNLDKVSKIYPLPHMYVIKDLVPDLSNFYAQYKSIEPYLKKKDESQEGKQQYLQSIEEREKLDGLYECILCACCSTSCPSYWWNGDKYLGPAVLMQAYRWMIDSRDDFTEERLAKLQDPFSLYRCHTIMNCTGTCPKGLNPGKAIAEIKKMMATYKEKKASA
Chain of UniProt Q0QF01 (whole entry, looked up): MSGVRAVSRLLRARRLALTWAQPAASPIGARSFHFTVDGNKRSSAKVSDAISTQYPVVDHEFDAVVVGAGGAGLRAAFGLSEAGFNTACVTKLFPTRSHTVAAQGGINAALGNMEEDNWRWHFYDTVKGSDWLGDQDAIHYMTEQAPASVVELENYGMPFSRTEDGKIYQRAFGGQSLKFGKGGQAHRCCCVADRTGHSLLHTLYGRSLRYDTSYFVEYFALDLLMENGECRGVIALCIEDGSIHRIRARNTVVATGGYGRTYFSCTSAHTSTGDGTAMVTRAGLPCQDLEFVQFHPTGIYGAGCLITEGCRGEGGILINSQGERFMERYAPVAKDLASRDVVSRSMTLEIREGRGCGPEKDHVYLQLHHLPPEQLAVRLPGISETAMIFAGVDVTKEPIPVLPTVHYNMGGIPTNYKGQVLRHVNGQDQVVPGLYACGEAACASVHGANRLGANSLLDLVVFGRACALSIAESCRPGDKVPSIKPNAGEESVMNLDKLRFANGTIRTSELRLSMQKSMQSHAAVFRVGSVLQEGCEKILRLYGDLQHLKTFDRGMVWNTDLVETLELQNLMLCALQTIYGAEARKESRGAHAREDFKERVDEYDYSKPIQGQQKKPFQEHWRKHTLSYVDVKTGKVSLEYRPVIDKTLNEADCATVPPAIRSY
Chain of UniProt A5GZW8 (whole entry, looked up): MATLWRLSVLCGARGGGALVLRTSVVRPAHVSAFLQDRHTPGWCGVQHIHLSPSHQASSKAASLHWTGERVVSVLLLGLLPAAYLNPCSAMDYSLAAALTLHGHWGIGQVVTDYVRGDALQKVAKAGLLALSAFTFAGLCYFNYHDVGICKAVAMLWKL
Chain of UniProt D0VWV4 (whole entry, looked up): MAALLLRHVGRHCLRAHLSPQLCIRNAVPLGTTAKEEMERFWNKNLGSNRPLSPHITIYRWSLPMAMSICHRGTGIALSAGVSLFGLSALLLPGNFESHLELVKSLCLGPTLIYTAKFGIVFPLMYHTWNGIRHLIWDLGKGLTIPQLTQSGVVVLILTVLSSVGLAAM
GSTO1: Glutathione S-transferase omega-1 (GSTO1, Homo sapiens, UniProt P78417)
Chain of UniProt P78417 (whole entry, looked up): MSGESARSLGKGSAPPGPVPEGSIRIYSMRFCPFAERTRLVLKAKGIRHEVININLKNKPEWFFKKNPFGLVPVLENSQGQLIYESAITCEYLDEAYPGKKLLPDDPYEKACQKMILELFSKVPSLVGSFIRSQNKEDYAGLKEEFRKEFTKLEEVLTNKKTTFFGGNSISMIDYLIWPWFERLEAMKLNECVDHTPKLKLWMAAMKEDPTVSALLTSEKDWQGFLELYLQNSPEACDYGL
CDK9 with cyclin T1: Cyclin-dependent kinase 9, with cyclin T1 (CDK9, Homo sapiens, UniProt P50750)
Chain of UniProt P50750 (whole entry, looked up): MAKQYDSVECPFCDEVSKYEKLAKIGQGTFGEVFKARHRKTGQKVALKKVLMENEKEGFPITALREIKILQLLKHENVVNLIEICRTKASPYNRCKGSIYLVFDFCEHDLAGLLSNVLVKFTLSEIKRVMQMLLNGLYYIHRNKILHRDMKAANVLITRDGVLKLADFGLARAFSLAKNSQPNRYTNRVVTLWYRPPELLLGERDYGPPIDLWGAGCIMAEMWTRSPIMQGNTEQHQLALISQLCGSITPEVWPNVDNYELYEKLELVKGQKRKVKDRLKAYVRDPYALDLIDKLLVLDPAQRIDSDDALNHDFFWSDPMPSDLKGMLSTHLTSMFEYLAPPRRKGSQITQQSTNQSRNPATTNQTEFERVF
GLO1: Lactoylglutathione lyase (GLO1, Homo sapiens, UniProt Q04760)
Chain of UniProt Q04760 (whole entry, looked up): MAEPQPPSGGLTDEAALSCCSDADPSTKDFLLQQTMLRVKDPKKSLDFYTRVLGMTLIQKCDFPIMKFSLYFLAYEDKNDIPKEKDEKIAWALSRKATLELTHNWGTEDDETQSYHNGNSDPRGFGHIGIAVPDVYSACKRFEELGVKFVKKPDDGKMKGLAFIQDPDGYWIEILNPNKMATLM
AGER: Advanced glycosylation end product-specific receptor (AGER, Homo sapiens, UniProt Q15109)
Chain of UniProt Q15109 (whole entry, looked up): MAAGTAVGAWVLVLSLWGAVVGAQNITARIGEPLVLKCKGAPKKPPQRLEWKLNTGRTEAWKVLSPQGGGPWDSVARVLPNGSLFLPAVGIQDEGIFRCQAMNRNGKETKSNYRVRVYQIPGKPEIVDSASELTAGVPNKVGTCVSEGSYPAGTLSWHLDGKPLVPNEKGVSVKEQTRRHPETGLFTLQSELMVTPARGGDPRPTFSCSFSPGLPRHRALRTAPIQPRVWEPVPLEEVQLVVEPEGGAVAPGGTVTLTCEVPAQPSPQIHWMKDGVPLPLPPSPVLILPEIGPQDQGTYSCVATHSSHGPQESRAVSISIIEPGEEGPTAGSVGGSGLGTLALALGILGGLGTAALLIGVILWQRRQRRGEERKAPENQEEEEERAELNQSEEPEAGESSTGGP
FLT3 ITD: Receptor-type tyrosine-protein kinase FLT3 (FLT3, Homo sapiens, UniProt P36888, ITD)
lecA: PA-I galactophilic lectin (lecA, Pseudomonas aeruginosa, UniProt Q05097)
Chain of UniProt Q05097 (whole entry, looked up): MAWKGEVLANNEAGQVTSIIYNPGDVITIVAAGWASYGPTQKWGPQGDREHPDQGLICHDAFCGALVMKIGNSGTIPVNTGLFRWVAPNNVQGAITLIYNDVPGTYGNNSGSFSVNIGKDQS
Chain of UniProt P39045 (whole entry, looked up): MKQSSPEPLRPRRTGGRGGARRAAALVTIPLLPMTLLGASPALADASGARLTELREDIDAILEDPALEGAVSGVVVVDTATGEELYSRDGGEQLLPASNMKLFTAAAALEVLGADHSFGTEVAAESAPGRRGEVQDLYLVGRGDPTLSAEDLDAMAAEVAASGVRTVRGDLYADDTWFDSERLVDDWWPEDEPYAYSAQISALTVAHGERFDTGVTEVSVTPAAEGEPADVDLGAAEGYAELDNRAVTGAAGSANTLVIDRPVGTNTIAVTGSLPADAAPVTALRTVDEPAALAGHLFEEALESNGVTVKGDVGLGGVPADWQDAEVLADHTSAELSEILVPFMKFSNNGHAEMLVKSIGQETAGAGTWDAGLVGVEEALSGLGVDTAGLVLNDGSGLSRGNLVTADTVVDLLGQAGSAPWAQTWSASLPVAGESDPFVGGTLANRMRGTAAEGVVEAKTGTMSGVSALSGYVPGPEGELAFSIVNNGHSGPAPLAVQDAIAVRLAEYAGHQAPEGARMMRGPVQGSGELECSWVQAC
Chain of UniProt Q9Y3R4 (whole entry, looked up): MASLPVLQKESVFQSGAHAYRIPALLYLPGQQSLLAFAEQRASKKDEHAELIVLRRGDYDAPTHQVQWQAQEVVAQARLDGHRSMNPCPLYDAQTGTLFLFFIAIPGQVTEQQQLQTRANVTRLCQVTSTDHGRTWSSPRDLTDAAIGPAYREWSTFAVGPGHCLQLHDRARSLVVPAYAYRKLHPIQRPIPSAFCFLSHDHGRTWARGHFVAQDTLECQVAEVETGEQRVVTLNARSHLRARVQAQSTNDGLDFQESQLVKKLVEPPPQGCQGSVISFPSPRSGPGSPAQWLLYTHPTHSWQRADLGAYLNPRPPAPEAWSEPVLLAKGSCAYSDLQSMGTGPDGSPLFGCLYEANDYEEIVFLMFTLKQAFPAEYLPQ
Chain of UniProt P40261 (whole entry, looked up): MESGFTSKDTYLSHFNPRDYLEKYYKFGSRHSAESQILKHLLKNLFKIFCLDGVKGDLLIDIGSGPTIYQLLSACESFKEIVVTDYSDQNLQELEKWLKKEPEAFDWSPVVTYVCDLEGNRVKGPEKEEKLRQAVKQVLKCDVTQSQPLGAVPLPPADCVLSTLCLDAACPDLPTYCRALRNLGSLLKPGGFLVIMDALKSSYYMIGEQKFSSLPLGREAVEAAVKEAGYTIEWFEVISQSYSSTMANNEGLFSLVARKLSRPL

`O=C(O[C@H]1Cc2c(O)cc(O)cc2O[C@@H]1c1ccc(O)c(O)c1)c1cc(O)c(O)c(O)c1` gave an inhibition of 89.7% (maltase, rat; enzyme activity, inhibitor; rat intestinal brush border vesicles; 10 µM).
For `O=C(Nc1ccccc1Nc1ccccc1)c1cccnc1C(F)(F)F`, the inhibition was 25.1% (Succinate dehydrogenase complex; enzyme activity, double-antibody sandwich ELISA; 1 µM).
With `O=C(NC1CCCCC1)C(c1ccccn1)N(C(=O)CCl)c1cccc(Cl)c1` (racemic) the inhibition was 100% (GSTO1; probe labelling, gel-based competitive ABPP; MDA-MB-435 soluble proteome; 100 nM, added: SE-Rh probe).
`COc1ccc(/C=C/C(=O)N2CCN(c3ccccc3)CC2)cc1` has an inhibition of 29.6 ± 1.7% (Agaricus bisporus tyrosinase; monophenolase activity; 500 µM, added: L-tyrosine substrate).
For `Cn1c(=O)c2cc(C(=O)NCCCN3CCCCCC3)sc2c2ccccc21`, inhibition read “no inhibition” (Farnesyl pyrophosphate synthase (FDPS, Homo sapiens, UniProt P14324); enzyme activity; up to 200 µM).
With `CC(=O)N[C@H]1NC[C@H](C(=O)O)[C@H](O)[C@@H]1O` the inhibition was 52% (Sialidase-2 (Homo sapiens, UniProt Q9Y3R4); enzyme activity, inhibitor; 600 µM, pH 6).
`O=C(CCl)N(CCNC(=O)C(F)(F)F)c1cccc([N+](=O)[O-])c1` gave an inhibition of 35% (GSTO1; probe labelling, gel-based competitive ABPP; MDA-MB-435 soluble proteome; 100 nM, added: SE-Rh probe).
`COc1ncccc1C(=O)Nc1ccccc1Nc1ccccc1` has an inhibition of 22.3% (Succinate dehydrogenase complex; enzyme activity, double-antibody sandwich ELISA; 0.5 µM).
`Clc1ccc2ccc3[n+](c2c1)[Ir-3]12([c]4ccccc4-3)([c]3ccccc3-c3ccc4ccc(Cl)cc4[n+]31)[n+]1ccccc1-c1cccc[n+]12.F[P-](F)(F)(F)(F)F` has an inhibition of 72.4% (CDK9 with cyclin T1; 1 µM).
The inhibition of `O=C(Nc1ccccc1Nc1ccccc1)c1cccnc1Br` is reported as 25.6% (Succinate dehydrogenase complex; enzyme activity, double-antibody sandwich ELISA; 2 µM).
For `Nc1ccc(/N=N/c2ccc(S(N)(=O)=O)cc2)c2ccccc12`, the inhibition was 78.2% (GLO1; enzyme activity, inhibitor; 25 µM).
`O=C(Nc1ccc(OCCN2CCCC2)cc1)c1cc2ccc(Cl)cc2s1` gave an inhibition of 97% (AGER; AGE2-BSA binding, inhibitor, competitive ELISA; 100 µM, 60 min, added: AGE2-BSA).
The inhibition of `Cc1n[nH]c(C)c1-c1nc2ccc3[nH]ncc3c2c2c1CCCC2` is reported as 54% (FLT3 ITD; enzyme activity, inhibitor, ADP detection; 0.1 µM).
With `O=C(NC1CCCCC1)C(c1cncs1)N(C(=O)CCl)c1ccc(F)cc1` (racemic) the inhibition was 50% (GSTO1; probe labelling, gel-based competitive ABPP; MDA-MB-435 soluble proteome; 100 nM, added: SE-Rh probe).
With `CC(=O)c1ccc(O)c(O)c1` the inhibition was 10% (lecA; ligand displacement, FP; 4 mM).
For `CC1(C)SC(C(CCc2ccccc2)B(O)O)N[C@H]1C(=O)O` (stereo partly drawn), inhibition read “no inhibition” (D-alanyl-D-alanine carboxypeptidase (Actinomadura sp. R39, UniProt P39045); enzyme activity, inhibitor; concentration not given).
For `CC[C@H](C)[C@H](NC(=O)[C@H](CCCNC(=N)N)NC(=O)[C@H](CCCCN)NC(=O)[C@@H]1CCCN1C(=O)[C@@H]1CCCN1CCCN(CC[C@H](N)C(=O)O)C[C@H]1O[C@@H](n2cnc3c(N)ncnc32)[C@H](O)[C@@H]1O)C(=O)N[C@@H](C)C(N)=O`, the inhibition was less than 30% (Nicotinamide N-methyltransferase (NNMT, Homo sapiens, UniProt P40261); enzyme activity, inhibitor; 100 µM).
With `O=C(NC1CCCCC1)C(c1cccnc1)N(C(=O)CCl)c1ccc(F)cc1` (racemic) the inhibition was greater than 75% (GSTO1; probe labelling, inhibitor, competitive ABPP; MDA-MB-435; 1 µM, 18 h, serum-containing medium).
For `O=C(Nc1ccccc1)Oc1ccc2c(c1)CCCN2C(=O)CCl`, inhibition read “no inhibition” (Aldo-keto reductase family 1 member B10 (AKR1B10, Homo sapiens, UniProt O60218, C299A); reductase activity, NADPH absorbance; HEK-293T lysate; 0.5 to 50 µM, 1 h).
For `Cc1ccc(N(C(=O)c2cc3ccc(Cl)cc3s2)c2ccc(C)cc2)cc1`, the inhibition was 0% (AGER; binding to AGE-BSA, competitive ELISA; 100 µM, 60 min).
`O=C(NC1CCCCC1)C(c1ccccn1)N(C(=O)CCl)c1ccc(F)c(F)c1` (racemic) gave an inhibition of 100% (GSTO1; probe labelling, gel-based competitive ABPP; MDA-MB-435 soluble proteome; 100 nM, added: SE-Rh probe).
`O=C(c1cc2ccc(Cl)cc2s1)N(c1ccc(F)cc1)c1ccc(F)cc1` has an inhibition of 0% (AGER; binding to AGE-BSA, competitive ELISA; 100 µM, 60 min).
`CC(C)(C)c1n[nH]cc1-c1nc2ccc3[nH]ncc3c2c2c1CCCC2` gave an inhibition of 20% (FLT3 ITD; enzyme activity, inhibitor, ADP detection; 0.1 µM).
`COc1cc(C(=O)NC2CCC(N3CCN(CC4CCC5(CCCC5)C4)CC3)CC2)c(F)cc1Nc1ncc2c(n1)N(C1CCCC1(F)F)CC(F)(F)C(=O)N2C` (stereo not drawn) has an inhibition of 3.51% (Leukocyte tyrosine kinase receptor (LTK, Homo sapiens, UniProt P29376); cell-free assay, TR-FRET; 10 µM).
With `c1n[nH]cc1-c1nc2ccc3[nH]ncc3c2c2c1CCCC2` the inhibition was 53% (FLT3 ITD; enzyme activity, inhibitor, ADP detection; 0.1 µM).
`Nc1ccc(/N=N/c2ccc(S(N)(=O)=O)cc2)c2ccc(O)cc12` gave an inhibition of 50.2% (GLO1; enzyme activity, inhibitor; 25 µM).
`NC(=O)c1ccc(C(=O)NOCc2ccc(Sc3cccc(Cl)c3)c(C(F)(F)F)c2)cc1` gave an inhibition of 21% (NAD-dependent protein deacetylase sirtuin-2 (SIRT2, Homo sapiens, UniProt Q8IXJ6); cell-free assay, inhibitor; 100 µM).
`C#CCSc1nc(Sc2nnnn2-c2ccccc2)c2nnn(Cc3ccccc3Cl)c2n1` has an inhibition of less than 15% (CDK9 with cyclin T1; enzyme activity, inhibitor; 10 µM).
The inhibition of `COc1ccc(NC(=O)c2cc3cccc(Cl)c3s2)cc1` is reported as 45% (AGER; binding to AGE-BSA, competitive ELISA; 100 µM, 60 min).
With `O=C(CCl)N(CCNC(=O)C(F)(F)F)c1ccc([N+](=O)[O-])cc1` the inhibition was 100% (GSTO1; probe labelling, gel-based competitive ABPP; MDA-MB-435 soluble proteome; 1000 nM, added: SE-Rh probe).
With `O=C(O)c1ccc(/N=N/c2cc(C(=O)O)c(O)c3ccccc23)cc1` the inhibition was 67.7% (GLO1; enzyme activity, inhibitor; 25 µM).
The inhibition of `O=C(Nc1ccccc1Nc1ccccc1)c1nccnc1Cl` is reported as 48.9% (Succinate dehydrogenase complex; enzyme activity, double-antibody sandwich ELISA; 8 µM).
The inhibition of `COC(=O)CCSc1nc2n(n1)C(c1cccc(OC)c1)C(C(=O)Nc1cncc(C)c1)=C(C)N2` (stereo not drawn) is reported as 41.1% (Serine/threonine-protein kinase mTOR (MTOR, Homo sapiens, UniProt P42345); enzyme activity, inhibitor, TR-FRET; 3 nM).
`Oc1ccc(CCC(O)CC(O)CCc2ccc(O)cc2)cc1` (stereo not drawn) has an inhibition of 12.3 ± 0.6% (Amine oxidase [flavin-containing] B (Maob, Rattus norvegicus, UniProt P19643); enzyme activity, inhibitor; 4 µg/mL).
The inhibition of `O=C(O[C@@H]1Cc2c(O)cc(O)cc2O[C@@H]1c1ccc(O)c(O)c1)c1ccc(O)cc1` is reported as 67.6% (maltase, rat; enzyme activity, inhibitor; rat intestinal brush border vesicles; 10 µM).
With `CC(C)C[C@H](NC(=O)CNC(=O)c1cc(Cl)ccc1Cl)B(O)O` the inhibition was 93.3% (Proteasome subunit beta type-5 (Babesia divergens, UniProt A0AAD9GDK3); proteasome activity; Babesia divergens, parasite lysate; 1 µM, added: Suc-LLVY-AMC substrate).
`O=C(CS(=O)(=O)Cc1ccco1)C12CC3CC(CC(C3)C1)C2`: inhibition “inactive” (17-beta-hydroxysteroid dehydrogenase type 1 (HSD17B1, Homo sapiens, UniProt P14061); 10 µM).
For `COc1cc(NC(=O)c2cc3ccc(Cl)cc3s2)cc(OC)c1OC`, the inhibition was 0% (AGER; binding to AGE-BSA, competitive ELISA; 100 µM, 60 min).
For `O=C(O)c1cc(/N=N/c2ccccc2)c2ccccc2c1O`, the inhibition was 90% (GLO1; enzyme activity, inhibitor; 25 µM).
With `O=C(Nc1ccccc1Nc1ccccc1)c1cccnc1F` the inhibition was 5.05% (Succinate dehydrogenase complex; enzyme activity, double-antibody sandwich ELISA; 0.5 µM).
With `O=C(c1cc2ccc(Cl)cc2s1)N(c1ccc(OCCN2CCCC2)cc1)c1ccc(OCCN2CCCC2)cc1` the inhibition was 97% (AGER; binding to AGE-BSA, competitive ELISA; 100 µM, 60 min).
For `N#Cc1ccc(O)c(O)c1`, the inhibition was 7% (lecA; ligand displacement, FP; 4 mM).
The inhibition of `Cc1ccc(-c2nc(SCc3cn(CC(=O)NC(=O)Nc4ccccn4)nn3)nc(Nc3cccc(C(F)(F)F)c3)c2C#N)cc1` is reported as less than 5% (Amine oxidase [flavin-containing] A (MAOA, Homo sapiens, UniProt P21397); enzyme activity, inhibitor, luciferase; 100 µM).
`O=C(NC1CCCCC1)C(c1ccccc1)N(C(=O)CCl)c1ccc(F)cc1` (racemic) has an inhibition of 85% (GSTO1; probe labelling, gel-based competitive ABPP; MDA-MB-435 soluble proteome; 100 nM, added: SE-Rh probe).
With `O=[N+]([O-])c1ccc(O)c(O)c1` the inhibition was 33% (lecA; ligand displacement, FP; 4 mM).

For quick reference, copied from above:
`O=C(c1cc2ccc(Cl)cc2s1)N(c1ccc(F)cc1)c1ccc(F)cc1` has an inhibition of 0% (AGER; binding to AGE-BSA, competitive ELISA; 100 µM, 60 min).
`CC(C)(C)c1n[nH]cc1-c1nc2ccc3[nH]ncc3c2c2c1CCCC2` gave an inhibition of 20% (FLT3 ITD; enzyme activity, inhibitor, ADP detection; 0.1 µM).
`COc1cc(C(=O)NC2CCC(N3CCN(CC4CCC5(CCCC5)C4)CC3)CC2)c(F)cc1Nc1ncc2c(n1)N(C1CCCC1(F)F)CC(F)(F)C(=O)N2C` (stereo not drawn) has an inhibition of 3.51% (Leukocyte tyrosine kinase receptor (LTK, Homo sapiens, UniProt P29376); cell-free assay, TR-FRET; 10 µM).
With `c1n[nH]cc1-c1nc2ccc3[nH]ncc3c2c2c1CCCC2` the inhibition was 53% (FLT3 ITD; enzyme activity, inhibitor, ADP detection; 0.1 µM).
